Published values from different studies.
Parts stem from different laboratories: compare values within a part only. Positions count from the first letter of the parent shown.

Block 1
Target: Protein C-ets-1 (ETS1, Homo sapiens, UniProt P14921, residues 1-441, full length assumed)
Method: protein-binding microarray
Form: double-stranded DNA, one strand shown
Matrix: in vitro
Tested at: not given
Notes: k-mer, scored over probes, only values ≥0.25
Reading: higher = stronger binding
Measurement: E-score
Target sequence (chain): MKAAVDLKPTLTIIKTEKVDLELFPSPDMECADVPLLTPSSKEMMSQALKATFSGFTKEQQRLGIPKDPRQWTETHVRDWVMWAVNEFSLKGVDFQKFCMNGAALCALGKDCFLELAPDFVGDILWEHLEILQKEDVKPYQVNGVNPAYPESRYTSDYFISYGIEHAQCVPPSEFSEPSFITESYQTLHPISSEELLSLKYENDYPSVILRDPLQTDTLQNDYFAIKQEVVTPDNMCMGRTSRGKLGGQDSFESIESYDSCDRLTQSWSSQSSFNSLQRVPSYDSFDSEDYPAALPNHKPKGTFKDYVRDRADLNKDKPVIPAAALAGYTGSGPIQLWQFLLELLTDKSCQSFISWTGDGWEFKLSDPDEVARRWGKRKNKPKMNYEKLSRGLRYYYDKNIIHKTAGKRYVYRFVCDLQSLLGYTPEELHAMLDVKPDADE
CACCCGGA: 0.325
AAAACGGA: 0.256
GACTTCCC: 0.416
GCGGAAGC: 0.477
CACAGGAA: 0.439
CAGGAAAC: 0.468
CCGCCCGG: 0.372
GGCCGGGA: 0.264

Block 2
Target: Sal-like protein 4, full length isoform B (SALL4, Homo sapiens, UniProt Q9UJQ4-2, residues 1-616)
Method: universal PBM
Form: double-stranded DNA, one strand shown
Matrix: in vitro
Tested at: not given
Notes: 8-mer, flanks averaged, mean of replicates
Reading: higher = stronger binding
Measurement: E-score
Target sequence (chain): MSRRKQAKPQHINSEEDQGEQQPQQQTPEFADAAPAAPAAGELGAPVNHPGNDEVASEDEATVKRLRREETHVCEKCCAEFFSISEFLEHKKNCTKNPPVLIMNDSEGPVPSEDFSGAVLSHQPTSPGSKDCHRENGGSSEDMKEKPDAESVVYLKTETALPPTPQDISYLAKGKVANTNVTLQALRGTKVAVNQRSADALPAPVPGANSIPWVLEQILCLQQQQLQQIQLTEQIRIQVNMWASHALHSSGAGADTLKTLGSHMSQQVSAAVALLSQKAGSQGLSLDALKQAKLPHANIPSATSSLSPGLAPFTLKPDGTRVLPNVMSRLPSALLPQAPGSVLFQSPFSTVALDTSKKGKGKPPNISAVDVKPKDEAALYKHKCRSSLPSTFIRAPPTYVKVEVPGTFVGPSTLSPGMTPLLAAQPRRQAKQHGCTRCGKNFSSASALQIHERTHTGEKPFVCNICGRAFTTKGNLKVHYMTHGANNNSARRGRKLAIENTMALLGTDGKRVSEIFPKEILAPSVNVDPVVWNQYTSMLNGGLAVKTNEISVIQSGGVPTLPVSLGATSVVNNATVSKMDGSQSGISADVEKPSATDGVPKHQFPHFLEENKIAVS
AGTCACGC: -0.192
AGACTGCC: -0.11
CAGAATGA: 0.0758
ATGACCAG: 0.00395
CCCTTTGA: -0.101
CGGCGGCA: -0.404
ACTGGACT: 0.0269
CGCTTCAA: 0.0384

Mixed results
P1: viral docking peptide; KGVKRKLFAEDSS; partner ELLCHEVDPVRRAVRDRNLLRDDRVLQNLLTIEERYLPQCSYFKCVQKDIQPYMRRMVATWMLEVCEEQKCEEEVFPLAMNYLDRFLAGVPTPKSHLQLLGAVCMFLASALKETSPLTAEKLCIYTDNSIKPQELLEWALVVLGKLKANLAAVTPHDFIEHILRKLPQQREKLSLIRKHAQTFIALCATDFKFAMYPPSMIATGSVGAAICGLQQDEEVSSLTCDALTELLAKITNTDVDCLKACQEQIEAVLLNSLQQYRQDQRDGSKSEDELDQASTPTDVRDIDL
VBP1 (Homo sapiens, UniProt P61758)
interaction screen (PFDN2 (Homo sapiens, UniProt Q9UHV9); cross-linking MS; hits only): cross-linked

P1 L7N
normalised enrichment score (CCND2, cyclin fold, Cln2 fusion (human); yeast growth competition, sequencing; yeast; weak parent motif; relative to: not given, higher = stronger binding): 0.191

HADHB (Homo sapiens, UniProt P55084)
cross-linked residues (CYGB (Homo sapiens, UniProt Q8WWM9); cross-linking MS; cell fractions; added: DSSO): K253 to K25

ADAR (Homo sapiens, UniProt P55265)
cross-linked residues (SESTD1 (Homo sapiens, UniProt Q86VW0); cross-linking MS; cell fractions; added: DSSO): K798 to K540

KHDRBS3 (Homo sapiens, UniProt O75525)
cross-linked residues (KHDRBS1 (Homo sapiens, UniProt Q07666); cross-linking MS; cell fractions; added: DSSO): K33 to K131

Some of these lines once more (block 1):
CACAGGAA: 0.439
AAAACGGA: 0.256
